Measurements pooled from the literature.
Every numbered part comes from another study and shows a few of its results, in no order.

Block 1 — technique: protein-binding microarray; molecule type: double-stranded DNA, one strand shown; matrix: in vitro; concentration: 0.8 µM; notes: whole 60-bp probe, no competitor; reading: higher = stronger binding; quantity: fluorescence intensity
Target: Centromere-binding protein 1, full length, N-terminal tag (CBF1, Saccharomyces cerevisiae, UniProt P17106, residues 1-351)
Sequence of UniProt P17106 (whole entry, looked up): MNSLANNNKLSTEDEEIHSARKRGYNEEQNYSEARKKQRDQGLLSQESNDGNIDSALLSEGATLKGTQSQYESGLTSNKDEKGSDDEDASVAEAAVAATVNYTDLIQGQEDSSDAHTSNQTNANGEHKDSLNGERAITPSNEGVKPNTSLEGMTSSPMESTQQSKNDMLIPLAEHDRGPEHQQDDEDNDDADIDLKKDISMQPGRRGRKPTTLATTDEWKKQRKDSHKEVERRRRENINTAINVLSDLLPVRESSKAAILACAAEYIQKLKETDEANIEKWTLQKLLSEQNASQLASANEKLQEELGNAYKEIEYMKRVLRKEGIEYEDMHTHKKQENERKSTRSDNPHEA
GAATGCAATGTTCTGCACGTTATTTACTTCGATTAGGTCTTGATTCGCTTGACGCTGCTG: 677 a.u.
GAACTATTCACGATGACCGTGACTCAGAAGGAATAGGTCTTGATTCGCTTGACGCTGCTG: 965 a.u.
CTACTTAAATATAGGCACGGGTGTTTAAAGCCGTTCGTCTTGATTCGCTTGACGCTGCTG: 732 a.u.
CTAAGTTCTTTTATCCTGATGACTTTTTCTCATTTCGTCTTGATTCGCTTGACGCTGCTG: 503 a.u.
GAACGTTTACCGTTTCGCGTGATCAACATCACATAGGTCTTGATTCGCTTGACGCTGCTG: 1200 a.u.
CTAATAACTTTATGTGTCACGTTCCTCAGGATTTTCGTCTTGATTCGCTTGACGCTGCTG: 2550 a.u.
GAACAGTGCAGTCGCAAGCACGTGCATGCGATTTAGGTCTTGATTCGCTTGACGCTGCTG: 15400 a.u.

Block 2 — technique: RNA Bind-n-Seq; molecule type: RNA; matrix: in vitro; concentration: not given; relative to: input RNA pool; reading: higher = stronger binding; quantity: bound/input enrichment
Target: RING finger protein unkempt homolog, zinc fingers 1-6, GST-SBP tag (UNK, Homo sapiens, UniProt Q9C0B0, residues 30-357)
Notes: RNA with constant flanks, human-mouse chimeric sites, ends assumed
Target sequence (chain): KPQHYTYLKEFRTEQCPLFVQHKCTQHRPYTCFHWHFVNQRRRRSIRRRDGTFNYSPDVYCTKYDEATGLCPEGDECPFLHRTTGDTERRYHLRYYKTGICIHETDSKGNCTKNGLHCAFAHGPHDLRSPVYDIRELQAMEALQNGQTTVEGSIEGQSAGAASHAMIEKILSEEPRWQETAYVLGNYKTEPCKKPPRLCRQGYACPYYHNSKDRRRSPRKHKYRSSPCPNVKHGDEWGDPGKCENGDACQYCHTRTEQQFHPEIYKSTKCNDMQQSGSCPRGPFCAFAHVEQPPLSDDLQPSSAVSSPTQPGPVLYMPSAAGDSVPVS
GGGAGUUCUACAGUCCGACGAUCAGAUUCCCCCUCCUGAGACCUCCUCCGAAGUUGGAGUCUCUUACAGAUGCCUCAUCCCCUGUUAGCGUUUUAGUUUGGACCACCCAGCCUUGGACAAUUCCAGCCAACCAGGCAAUUUGCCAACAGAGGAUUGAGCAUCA: 1.18 ratio
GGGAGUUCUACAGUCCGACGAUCAAAGAGUGGAUAGAGUGUGCACACGGGAUCGGUGGGACCCGGGCGAAGAAAGAGUGCAAGAUAGAGUUCGAUGACUUCGAAGAGUGCUUGCUUCGGUACAAAACGAUGAGACGUGCACAUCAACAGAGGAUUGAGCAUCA: 0.266 ratio
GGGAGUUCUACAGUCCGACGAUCAAAGUGAUGACUAUGUUUGUCCAACGACAGGUAUUUUCGGAGAGCAAGGAUGAGAUUGCGUUAGUCCUCUAUGGCACAGAUGGCACUGAUAAUGCCCUUGCUGGCAAGGACCAGUAUCAGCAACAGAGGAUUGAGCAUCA: 0.101 ratio
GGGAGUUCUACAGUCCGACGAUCCGCUGGCCCAAGCUGAUGGACUCUGAUGGCCUCCAUCUCUCAGGCACGUGUGCCUUCUCUUAGUCCCUGUUUUCGGGUCACAAAGCUUCUCAGUACUGUUUGACAGAAGCACCAGCUUUGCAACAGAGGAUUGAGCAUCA: 0.0956 ratio
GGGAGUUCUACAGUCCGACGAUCCUGAGGAUACCACUGAAAGAGACAUUAAAGGAGUCAUUGAGGGCUCUGUUCGUGCAAGAAUAGUCACUGAUCGGGAAACUGGUUCUUCCAAAGGGUUUGGUUUUGUAGACUUUAAUAGUGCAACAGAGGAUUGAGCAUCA: 0.977 ratio
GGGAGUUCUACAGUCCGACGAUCCCUGCUCAGAUCACCAUGAAAGUAAUCCAAGGCUUGUAUAGUGGGGUCACCACAGUGGAACUGGACACCCUGGCUGCUGAGACAGCCGCAACCUUGACCACGAAGCACCCUGACUAUGCCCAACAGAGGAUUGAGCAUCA: 0.157 ratio

Block 3 — technique: RNA Bind-n-Seq; molecule type: RNA; matrix: in vitro; concentration: 365 nM; relative to: no-protein control; reading: higher = stronger binding; quantity: RBNS enrichment (R)
Target: RNA binding protein fox-1 homolog 2, RRM domain, GST-SBP tag (RBFOX2, Homo sapiens, UniProt O43251-10, residues 100-194)
Notes: natural RNA segment, single round, ends assumed
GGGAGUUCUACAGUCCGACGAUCUUGUGAGAAUUGUCAGUGUAACUAUUACCUACCAGUAUUGUUCAGAGAGAUUGAAACAGAAUAAACGGGCUGUUCUUGAAGAAGCAAAACCAGAAUAUGCAUUACUUUGGUGGAAUUCUCGGGUGCCAA: 0.474
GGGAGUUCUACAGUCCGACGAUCCCAACCAUCUGCCAGAGAACUCCUAUGCAUCCCUUAGAACCCUGCUCAGACACCAUUACUUUUGUGAACGCUUCUGCCACAUCUUGUCUUCCCCAAAAUUGAUCACUCCGUGGAAUUCUCGGGUGCCAA: 5.02
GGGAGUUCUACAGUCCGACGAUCUUCUUGGUAGCCCUGGUUUGCAUUGCUUUGUGUUUCCACACCCGAGGCUGUGUGGGCGGGUGCAUGUGCACCGUGGAGUGCACACAAGGGGACUGUCAAUCACAGGGUUUUGGAAUUCUCGGGUGCCAA: 1.25
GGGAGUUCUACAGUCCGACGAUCUUUGGUAUUAAUUUGACUGUGCAUGACAGCGGCAAUCUUUUCUUUGGUCAAAGUUUUCUGUUUAUUUUGCUUGUCAUAUUCGAUGUACUUUAAGGUGUCUUUAUGAAGUUUGGAAUUCUCGGGUGCCAA: 3.15
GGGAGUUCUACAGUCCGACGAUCUGGAAAGUCAUGCAAUCCCAUUUGCAGGAUCUGUCUGUGCACAUGCCUCUGUAGAGAGCAGCAUUCCCAGGGACCUUGGAAACAGUUGGCACUGUAAGGUGCUUGCUCCCUGGAAUUCUCGGGUGCCAA: 0.501
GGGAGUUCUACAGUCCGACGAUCAUGACAGAAGUUCGUAUUACGCCUUGGAAGGUCUAGGUGGAGAUCACCACCAGCAUUCUCUGCCUGUGGGGUUGUGGGGCUGGUGCUUUCUCCAUUUCUGAGGGUCAGGAUGGAAUUCUCGGGUGCCAA: 0.712
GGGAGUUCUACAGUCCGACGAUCAGGUCCACCGUCUCCCCUCCCCUCAUUUGUAAGAAUAGCUACACACUAACAUUUUGGGAAGGAGAGGCACAUAACUUUUUUUAACAUUUGGUAACUAGGUUAUGGGCUCUUGGAAUUCUCGGGUGCCAA: 0.43

Single results of other studies
PhoQ, residues 284 288 289 292 302 303 SACGEM  fold induction (PhoP, residues 12 14 15 18 19 SEGLL (Escherichia coli, UniProt P23836); Sort-seq, item: YFP reporter; E. coli; PhoQ-PhoP variant library, added: 10 µM Mg2+; relative to: high Mg2+ state, higher = stronger signaling): 12.5

Repeated from above (block 2):
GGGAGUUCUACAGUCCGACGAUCAAAGUGAUGACUAUGUUUGUCCAACGACAGGUAUUUUCGGAGAGCAAGGAUGAGAUUGCGUUAGUCCUCUAUGGCACAGAUGGCACUGAUAAUGCCCUUGCUGGCAAGGACCAGUAUCAGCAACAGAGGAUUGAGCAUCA: 0.101 ratio
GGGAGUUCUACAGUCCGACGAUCCGCUGGCCCAAGCUGAUGGACUCUGAUGGCCUCCAUCUCUCAGGCACGUGUGCCUUCUCUUAGUCCCUGUUUUCGGGUCACAAAGCUUCUCAGUACUGUUUGACAGAAGCACCAGCUUUGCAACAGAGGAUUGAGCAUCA: 0.0956 ratio
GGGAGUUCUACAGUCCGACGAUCCUGAGGAUACCACUGAAAGAGACAUUAAAGGAGUCAUUGAGGGCUCUGUUCGUGCAAGAAUAGUCACUGAUCGGGAAACUGGUUCUUCCAAAGGGUUUGGUUUUGUAGACUUUAAUAGUGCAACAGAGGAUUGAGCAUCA: 0.977 ratio
